Measured values gathered from unrelated publications.
Compare with care: the assays were run in different laboratories. Several values in a cell are separate wells, animals, samples, runs or records.

Substance	target or system	test	system	conditions	scale	measurement	result
CC[C@H](C)[C@H](NC(=O)[C@H](CC(C)C)NC(=O)[C@H](Cc1c[nH]c2ccccc12)NC(=O)[C@H](CCC(N)=O)NC(=O)[C@@H](NC(=O)[C@H](Cc1ccccc1)NC(=O)[C@H](C)NC(=O)[C@H](CCCCNC(=O)COCCOCCNC(=O)COCCOCCNC(=O)CC[C@H](NC(=O)CCCCCCCCCCCCCCCCCCC(=O)O)C(=O)O)NC(=O)[C@H](CCC(N)=O)NC(=O)[C@H](C)NC(=O)[C@@H](NC(=O)[C@H](CCCCN)NC(=O)[C@H](CC(=O)O)NC(=O)[C@H](CC(C)C)NC(=O)C(C)(C)NC(=O)[C@@H](NC(=O)[C@H](CO)NC(=O)[C@H](Cc1ccc(O)cc1)NC(=O)[C@H](CC(=O)O)NC(=O)[C@H](CO)NC(=O)[C@@H](NC(=O)[C@H](Cc1ccccc1)NC(=O)[C@@H](NC(=O)CNC(=O)[C@H](CCC(=O)O)NC(=O)C(C)(C)NC(=O)[C@@H](N)Cc1ccc(O)cc1)[C@@H](C)O)[C@@H](C)O)[C@@H](C)CC)[C@@H](C)CC)C(C)C)C(=O)N[C@@H](C)C(=O)NCC(=O)NCC(=O)N1CCC[C@H]1C(=O)N[C@@H](CO)C(=O)N[C@@H](CO)C(=O)NCC(=O)N[C@@H](C)C(=O)N1CCC[C@H]1C(=O)N1CCC[C@H]1C(=O)N1CCC[C@H]1C(=O)N[C@@H](CO)C(N)=O	–	–	healthy subjects, single ascending dose	1.0 mg, postbaseline	–	treatment-emergent ADA positive subjects	0%
CCn1c2ccccc2c2cc(CN3CCN(Cc4cccc(Cl)c4)CC3)ccc21	SARS-CoV-2	cytopathic effect	USA_WA1/2020	round 2, 5-point	–	efficacy	106%
Cn1cnc(Cn2c(=O)[nH]/c(=N\c3cc4cn(C)nc4cc3Cl)n(Cc3cc(F)c(F)cc3F)c2=O)n1	–	–	human, normal renal function	oral, 375 mg	–	treatment-related TEAE, Moderate severity	0%
CC(C)(C)[C@H](NC(=O)C(F)(F)F)C(=O)N1C[C@H]2[C@@H]([C@H]1C(=O)N[C@H](C#N)C[C@@H]1CCNC1=O)C2(C)C	–	–	human, fasted	oral, 500 mg single dose, 28 days, no ritonavir	–	participants with serious adverse events	0%
CCCCN(CCCNC(=O)c1cc(Nc2cccc(SC)c2)nc2ccccc12)Cc1ccccc1	SARS-CoV-2	cytopathic effect	USA_WA1/2020	round 2, 5-point	–	efficacy	37.9%
CCc1c(C(=O)C(N)=O)c2c(OCC(=O)O)cccc2n1Cc1ccccc1	C2C12	–	–	1 µM, added: AP venom	baseline: venom alone	viability difference	27.4%
VVLSFELLHAPATVC	human CD4 T cells	AIM	peptide	–	–	responding donors	7%
CC[C@H](C)[C@H](NC(=O)[C@H](CC(C)C)NC(=O)[C@H](Cc1c[nH]c2ccccc12)NC(=O)[C@H](CCC(N)=O)NC(=O)[C@@H](NC(=O)[C@H](Cc1ccccc1)NC(=O)[C@H](C)NC(=O)[C@H](CCCCNC(=O)COCCOCCNC(=O)COCCOCCNC(=O)CC[C@H](NC(=O)CCCCCCCCCCCCCCCCCCC(=O)O)C(=O)O)NC(=O)[C@H](CCC(N)=O)NC(=O)[C@H](C)NC(=O)[C@@H](NC(=O)[C@H](CCCCN)NC(=O)[C@H](CC(=O)O)NC(=O)[C@H](CC(C)C)NC(=O)C(C)(C)NC(=O)[C@@H](NC(=O)[C@H](CO)NC(=O)[C@H](Cc1ccc(O)cc1)NC(=O)[C@H](CC(=O)O)NC(=O)[C@H](CO)NC(=O)[C@@H](NC(=O)[C@H](Cc1ccccc1)NC(=O)[C@@H](NC(=O)CNC(=O)[C@H](CCC(=O)O)NC(=O)C(C)(C)NC(=O)[C@@H](N)Cc1ccc(O)cc1)[C@@H](C)O)[C@@H](C)O)[C@@H](C)CC)[C@@H](C)CC)C(C)C)C(=O)N[C@@H](C)C(=O)NCC(=O)NCC(=O)N1CCC[C@H]1C(=O)N[C@@H](CO)C(=O)N[C@@H](CO)C(=O)NCC(=O)N[C@@H](C)C(=O)N1CCC[C@H]1C(=O)N1CCC[C@H]1C(=O)N1CCC[C@H]1C(=O)N[C@@H](CO)C(N)=O	–	–	human, plasma	subcutaneous, 15.0 mg once weekly, week 23, multiple doses	–	Cmax	2930 ng/mL
CCCCSCCCNC(=O)C1CCN(Cc2nc(-c3ccc(CC)cc3)oc2C)CC1	SARS-CoV-2	cytopathic effect	USA_WA1/2020	retest 8-point	–	efficacy	73%
QDALFAYTKRNVIPT	human CD4 T cells	AIM	peptide	–	–	responding donors	6%
Nc1ncnc2c([C@@H]3N[C@H](CO)[C@@H](O)[C@H]3O)c[nH]c12	Zaire ebolavirus	antibody staining	human macrophages	6.3 µM	–	antigen-positive cells	67.3%
SFLAHIQWMVMFTPL	human CD4 T cells	AIM	peptide	–	–	responding donors	8%
CNC(=O)[C@@H](NC(=O)[C@H](CC(C)C)[C@H](O)C(=O)NO)C(C)(C)C	snake venom metalloproteinase	proteolytic activity, inhibitor	Daboia russelii, venom KL	added: azocasein	–	IC50	216 nM and 139 nM and 237 nM
